{"data": "Results of several laboratories", "note": "Protocols differ between the studies behind these lines. Values joined by “and” are separate records of one study, mostly repeats; a detail may differ. ± marks the error that the study gave."}
{"Compound": "CCc1nnc(Nc2ccnc3ccc(-c4ccc(S(=O)(=O)N5CCOCC5)cc4)cc23)s1", "organism": "Plasmodium falciparum", "assay": "parasite growth, SYBR Green", "system": "W2", "endpoint": "EC50", "value": "1900 nM"}
{"Compound": "O=C(NCc1nc(-c2ccc(C(F)(F)F)cc2)cs1)[C@H]1CCCN(C(=O)COCCN2CCCCC2)C1", "organism": "Plasmodium falciparum", "assay": "SYBR Green growth", "system": "asexual blood-stage parasites, 3D7", "setting": "72 h", "endpoint": "EC50", "value": "18 ± 5.3 nM"}
{"Compound": "CC(=O)NC[C@H]1CN(c2ccc(N3CCOCC3)c(F)c2)C(=O)O1", "organism": "Staphylococcus aureus", "assay": "broth microdilution", "system": "methicillin-susceptible isolates", "endpoint": "MBC", "value": "8 µg/mL"}
{"Compound": "COc1ccc(OCCCO)cc1-c1cn2cc(-c3nnc(NCCCCc4ccccc4)o3)ccc2n1", "organism": "Plasmodium falciparum", "assay": "LDH readout", "system": "3D7 Hyp1-Nluc", "setting": "2 µM, 72 h", "how to read": "reference: DMSO", "endpoint": "parasite growth", "value": "53.1%"}
{"Compound": "CN[C@H](CC(C)C)C(=O)N[C@H]1C(=O)N[C@@H](CC(N)=O)C(=O)N[C@H]2C(=O)N[C@H]3C(=O)N[C@H](C(=O)N[C@H](C(=O)O)c4cc(O)cc(O)c4-c4cc3ccc4O)[C@H](O)c3ccc(c(Cl)c3)Oc3cc2cc(c3O[C@@H]2O[C@H](CO)[C@@H](O)[C@H](O)[C@H]2O[C@H]2C[C@](C)(N)[C@H](O)[C@H](C)O2)Oc2ccc(cc2Cl)[C@H]1O", "organism": "Staphylococcus epidermidis", "assay": "broth microdilution", "system": "methicillin-susceptible isolates", "endpoint": "MBC", "value": "2 µg/mL"}
{"Compound": "O=C(Nc1ccc(CNc2ncnc3ccccc23)cc1)c1ccc(Cl)c(F)c1", "organism": "Plasmodium falciparum", "assay": "nanoluciferase readout", "system": "3D7 Hyp1-Nluc", "setting": "20 µM, 72 h", "how to read": "reference: DMSO", "endpoint": "parasite growth", "value": "7.37%"}
{"Compound": "O=S(=O)(c1ccc(-c2ccc3nccc(Nc4ccccc4)c3c2)cc1)N1CCOCC1", "organism": "Plasmodium falciparum", "assay": "parasite growth, SYBR Green", "system": "D6", "endpoint": "EC50", "value": "190 nM"}
{"Compound": "CCONC(=O)N1CCC[C@H](C(=O)N[C@@H](C)c2nc(-c3ccc(C#N)cc3)cs2)C1", "organism": "Plasmodium falciparum", "assay": "SYBR Green growth", "system": "asexual blood-stage parasites, 3D7", "setting": "72 h", "endpoint": "EC50", "value": "23 ± 1.5 nM"}
{"Compound": "CC(C)n1ncc2c(C(=O)NCC3(C)CNC3)cc(C3CC3)nc21", "organism": "coxsackievirus A16", "system": "RD", "setting": "1.5 µM", "endpoint": "cell protection", "value": "86.3% and 87.8%"}
{"Compound": "COc1cc(C(=O)N(C)C)ccc1-c1cc2nccc(-c3ccc4ccncc4c3)c2o1", "organism": "Plasmodium falciparum", "assay": "nanoluciferase readout", "system": "3D7 Hyp1-Nluc", "setting": "20 µM, 72 h", "how to read": "reference: DMSO", "endpoint": "parasite growth", "value": "0.1%"}
{"Compound": "c1ccc(CCNC2CCCc3c2[nH]c2ccc(C4CCCCC4)cc32)cc1 (centres unmarked)", "organism": "Mycolicibacterium smegmatis", "assay": "cell growth", "endpoint": "IC50", "value": "no effect"}
{"Compound": "Cn1cc(-c2cnc3[nH]cc(-c4cn(Cc5cccc(F)c5F)nn4)c3c2)cn1", "organism": "Plasmodium falciparum", "assay": "nanoluciferase readout", "system": "3D7 Hyp1-Nluc", "setting": "2 µM, 72 h", "how to read": "reference: DMSO", "endpoint": "parasite growth", "value": "8.6%"}
{"Compound": "COC(=O)[C@@H](NCc1cc2ccccc2nc1OCc1ccccc1)C(C)C", "organism": "Pseudomonas aeruginosa", "setting": "128 µg/mL, with: pentamidine 50 µM", "how to read": "reference: control", "endpoint": "growth", "value": "91.9%"}
{"Compound": "O=C(NCc1nc(-c2ccccc2)cs1)[C@H]1CCCN(C(=O)COc2ccccc2)C1", "organism": "Plasmodium falciparum", "assay": "SYBR Green growth", "system": "asexual blood-stage parasites, 3D7", "setting": "72 h", "endpoint": "EC50", "value": "760 ± 240 nM"}
{"Compound": "CC/N=C(\\c1ccc(OC)c(OC)c1)N1CCCc2cc(C3=NNC(=O)SC3C)ccc21 (centres unmarked)", "organism": "Plasmodium falciparum", "assay": "LDH readout", "system": "3D7 Hyp1-Nluc", "setting": "2 µM, 72 h", "how to read": "reference: DMSO", "endpoint": "parasite growth", "value": "41.1%"}
{"Compound": "N[C@@H](CC(=O)O)C(=O)O", "organism": "Drosophila melanogaster", "assay": "fluorescence", "setting": "liquid food, 40 µg/mL, first instar larvae", "how to read": "reference: solvent", "endpoint": "fluorescein ingestion", "value": "12.6%"}
{"Compound": "CNS(=O)(=O)c1ccccc1Nc1nc(Nc2cc(OC)c(OC)cc2C)ncc1Br", "organism": "Plasmodium falciparum", "assay": "nanoluciferase readout", "system": "3D7 Hyp1-Nluc", "setting": "20 µM, 72 h", "how to read": "reference: DMSO", "endpoint": "parasite growth", "value": "5.51%"}
{"Compound": "C#CCON=C1C=CC(=C(C#N)c2ccccc2)C=C1", "organism": "Clavispora lusitaniae", "assay": "broth dilution", "system": "ATCC 34449", "setting": "48 h, 37 °C", "endpoint": "MFC", "value": "64 µg/mL"}
{"Compound": "S=c1ccss1", "organism": "Drosophila melanogaster", "assay": "liquid food feeding", "setting": "40 µg/mL, first instar larvae", "how to read": "reference: solvent", "endpoint": "fluorescein ingestion", "value": "-31.4%"}
{"Compound": "COc1cc(C=O)ccc1OC1=C(Cl)C(=O)c2ccccc2C1=O", "organism": "Serratia marcescens", "system": "MTCC 4301", "setting": "10 µg/mL", "endpoint": "zone of inhibition", "value": "23 mm"}
{"Compound": "O=C(NCc1nc(-c2ccc(C(F)(F)F)cc2)cs1)[C@H]1CCCN(C(=O)CO[C@H]2CCCNC2)C1", "organism": "Plasmodium falciparum", "assay": "SYBR Green growth", "system": "asexual blood-stage parasites, 3D7", "setting": "72 h", "endpoint": "EC50", "value": "17 ± 8.4 nM"}
{"Compound": "CC[n+]1c(/C=C/C=C2/N(C)c3ccccc3C2(C)C)sc2ccccc21.[I-]", "organism": "Drosophila melanogaster", "assay": "liquid food feeding", "setting": "40 µg/mL, first instar larvae", "how to read": "reference: solvent", "endpoint": "fluorescein ingestion", "value": "-42.3%"}
{"Compound": "Cc1ccc(-c2csc(CNC(=O)[C@H]3CCCN(C(=O)[C@H]4CCC(C)(C)O4)[C@H]3C)n2)cn1", "organism": "Plasmodium falciparum", "assay": "SYBR Green growth", "system": "asexual blood-stage parasites, 3D7", "setting": "72 h", "endpoint": "EC50", "value": "7 ± 1 nM"}
{"Compound": "CNC(=O)c1cc(Oc2ccc(NC(=O)Nc3cc(C(F)(C(F)(F)F)C(F)(F)F)ccc3F)cc2)ccn1", "organism": "Drosophila melanogaster", "system": "ptc>dRet M955T", "setting": "in food, concentration not given, 25 °C", "endpoint": "rescue of viability", "value": "> 80%"}
{"Compound": "COCC(=O)N1CCC[C@H](C(=O)NCc2nc(-c3cccc(C)c3)cs2)C1", "organism": "Plasmodium falciparum", "assay": "SYBR Green growth", "system": "asexual blood-stage parasites, 3D7", "setting": "72 h", "endpoint": "EC50", "value": "> 5000 nM"}
{"Compound": "COC(=O)[C@H]1[C@H]2C[C@@H]3c4[nH]c5cc(OC)ccc5c4CCN3C[C@H]2C[C@@H](OC(=O)c2cc(OC)c(OC)c(OC)c2)[C@@H]1OC", "organism": "Drosophila melanogaster", "assay": "fluorescence", "setting": "liquid food, 40 µg/mL, first instar larvae", "how to read": "reference: solvent", "endpoint": "fluorescein ingestion", "value": "-18.1%"}
{"Compound": "O=C(NCCN1CCCC1)c1cc(-c2ccc(CN3CCOCC3)cc2)nc2ccc(F)cc12", "organism": "Plasmodium berghei", "assay": "parasite growth, luciferase bioluminescence", "system": "HepG2 spheroids infected", "setting": "24 h", "endpoint": "EC20", "value": "0.38 nM"}
{"Compound": "COc1ccc(C[C@H](NC(=O)[C@H](C)NC(=O)CN2CCOCC2)C(=O)N[C@@H](Cc2ccccc2)C(=O)C2(C)CO2)cc1 (stereo in doubt)", "organism": "Plasmodium berghei", "assay": "parasitaemia, 4-day suppression test", "system": "ANKA, infected BALB/c mice", "setting": "oral", "endpoint": "ED50", "value": "7.62 mg/kg"}
{"Compound": "Cc1c2c(nn1C)CSCc1cc(n(C)n1)CSc1cc(c3ccccc3c1)OCCCc1c(C(=O)O)n(C)c3c-2c(Cl)ccc13", "organism": "Staphylococcus aureus", "assay": "broth microdilution", "system": "MSSA isolates", "endpoint": "MIC50", "value": "12.5 µM"}
{"Compound": "N=C(N)c1ccc(OCc2ccc(Br)cc2COc2ccc(C(=N)N)cc2)cc1", "organism": "Escherichia coli", "assay": "checkerboard", "system": "552100 clinical isolate", "setting": "unit not given, with: rifampicin", "how to read": "lower = stronger synergy", "endpoint": "FICI", "value": "≤ 0.031"}
{"Compound": "Cc1cc(OC(C)C)ccc1C(=O)C(C)(C)NC(=O)c1sccc1C", "organism": "Botrytis cinerea", "assay": "conidial germination", "system": "B05.10", "setting": "0.1 µg/mL", "endpoint": "inhibition", "value": "16.5 ± 6.7%"}
{"Compound": "C[C@@H]1[C@H](O)[C@@H](C)/C=C/C=C/C=C/C=C/C=C/C=C/C=C/[C@H](O[C@@H]2O[C@H](C)[C@@H](O)[C@H](N)[C@@H]2O)C[C@@H]2O[C@](O)(C[C@@H](O)C[C@@H](O)[C@H](O)CC[C@@H](O)C[C@@H](O)CC(=O)O[C@H]1C)C[C@H](O)[C@H]2C(=O)O", "organism": "Leishmania major", "assay": "eosin vital stain", "system": "promastigote", "setting": "500 µg/mL, 48 h", "endpoint": "antileishmanial activity", "value": "96.9% and 97.3% and 99.1%"}
{"Compound": "O=S(=O)(c1ccc(-c2ccc3nccc(Nc4ccncc4)c3c2)cc1)N1CCOCC1", "organism": "Plasmodium falciparum", "assay": "parasite growth, SYBR Green", "system": "D6", "endpoint": "EC50", "value": "270 nM"}
{"Compound": "N=C1C=CC(=C(c2ccc(N)cc2)c2ccc(N)cc2)C=C1", "organism": "Drosophila melanogaster", "assay": "fluorescence", "setting": "liquid food, 40 µg/mL, first instar larvae", "how to read": "reference: solvent", "endpoint": "fluorescein ingestion", "value": "-79.1%"}
{"Compound": "CC(C)OCC(=O)N1CCC[C@H](C(=O)NCc2nc(-c3ccccc3)cs2)C1", "organism": "Plasmodium falciparum", "assay": "SYBR Green growth", "system": "asexual blood-stage parasites, 3D7", "setting": "72 h", "endpoint": "EC50", "value": "170 ± 15 nM"}
{"Compound": "CCN(CC)CCCC(C)Nc1ccnc2cc(Cl)ccc12 (centres unmarked)", "organism": "Drosophila melanogaster", "assay": "fluorescence", "setting": "liquid food, 40 µg/mL, first instar larvae", "how to read": "reference: solvent", "endpoint": "fluorescein ingestion", "value": "15.5%"}
{"Compound": "COCC(=O)N1CCC[C@H](C(=O)NCc2nc(C3=CCOCC3)cs2)C1", "organism": "Plasmodium falciparum", "assay": "SYBR Green growth", "system": "asexual blood-stage parasites, 3D7", "setting": "72 h", "endpoint": "EC50", "value": "> 5000 nM"}
{"Compound": "Nc1nc(-c2ccccc2)nc2[nH]nc(Nc3ccc(C(F)(F)F)cc3)c12", "organism": "coxsackievirus B3", "system": "31-1-93, NMRI mice, CVB3 chronic myocarditis", "setting": "oral, 100 mg/kg twice daily, day 7, dosed days 1 to 7, score scale 0 to 7", "how to read": "direction not given", "endpoint": "clinical score", "value": 0.22}
{"note": "For quick reference, copied from above:"}
{"Compound": "COc1ccc(C[C@H](NC(=O)[C@H](C)NC(=O)CN2CCOCC2)C(=O)N[C@@H](Cc2ccccc2)C(=O)C2(C)CO2)cc1 (stereo in doubt)", "organism": "Plasmodium berghei", "assay": "parasitaemia, 4-day suppression test", "system": "ANKA, infected BALB/c mice", "setting": "oral", "endpoint": "ED50", "value": "7.62 mg/kg"}
{"Compound": "O=C(NCc1nc(-c2ccccc2)cs1)[C@H]1CCCN(C(=O)COc2ccccc2)C1", "organism": "Plasmodium falciparum", "assay": "SYBR Green growth", "system": "asexual blood-stage parasites, 3D7", "setting": "72 h", "endpoint": "EC50", "value": "760 ± 240 nM"}
{"Compound": "CC/N=C(\\c1ccc(OC)c(OC)c1)N1CCCc2cc(C3=NNC(=O)SC3C)ccc21 (centres unmarked)", "organism": "Plasmodium falciparum", "assay": "LDH readout", "system": "3D7 Hyp1-Nluc", "setting": "2 µM, 72 h", "how to read": "reference: DMSO", "endpoint": "parasite growth", "value": "41.1%"}
{"Compound": "CNS(=O)(=O)c1ccccc1Nc1nc(Nc2cc(OC)c(OC)cc2C)ncc1Br", "organism": "Plasmodium falciparum", "assay": "nanoluciferase readout", "system": "3D7 Hyp1-Nluc", "setting": "20 µM, 72 h", "how to read": "reference: DMSO", "endpoint": "parasite growth", "value": "5.51%"}
